Experimental data of several laboratories.
Every numbered part comes from another study and shows a few of its results, in no order. Values joined by “and” are separate records of one study, mostly repeats; a detail may differ.

Block 1
Target: Calcium/calmodulin-dependent protein kinase type II subunit alpha (CAMK2A, Homo sapiens, UniProt Q9UQM7)
Sequence of UniProt Q9UQM7 (whole entry, looked up): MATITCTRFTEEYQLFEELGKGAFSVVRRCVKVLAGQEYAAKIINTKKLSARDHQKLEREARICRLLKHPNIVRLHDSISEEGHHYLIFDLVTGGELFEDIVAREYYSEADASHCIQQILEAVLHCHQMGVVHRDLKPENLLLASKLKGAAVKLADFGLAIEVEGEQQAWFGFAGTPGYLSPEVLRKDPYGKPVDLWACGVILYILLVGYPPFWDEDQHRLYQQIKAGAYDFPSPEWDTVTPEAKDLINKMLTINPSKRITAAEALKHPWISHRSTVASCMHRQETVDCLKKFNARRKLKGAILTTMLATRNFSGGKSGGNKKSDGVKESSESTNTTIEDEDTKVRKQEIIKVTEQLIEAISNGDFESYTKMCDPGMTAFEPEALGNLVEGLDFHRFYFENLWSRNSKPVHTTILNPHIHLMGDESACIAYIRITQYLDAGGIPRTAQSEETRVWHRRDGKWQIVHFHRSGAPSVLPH
Observed: enzyme activity
Mode: inhibitor
Tested at: 10 µM
Endpoint: inhibition
NCCCCC(=O)O: -19%
C[C@H](CC[C@@H](O[C@@H]1O[C@H](CO[C@@H]2O[C@H](CO)[C@@H](O)[C@H](O)[C@H]2O)[C@@H](O)[C@H](O)[C@H]1O[C@@H]1O[C@H](CO)[C@@H](O)[C@H](O)[C@H]1O)C(C)(C)O)[C@H]1CC[C@@]2(C)[C@@H]3CC=C4[C@@H](CC[C@H](O[C@@H]5O[C@H](CO[C@@H]6O[C@H](CO)[C@@H](O)[C@H](O)[C@H]6O)[C@@H](O)[C@H](O)[C@H]5O)C4(C)C)[C@]3(C)[C@H](O)C[C@]12C: -13%
CCCCCCCCCCCCCCCCCCCC(=O)O: 16%
CC1(C)[C@H](OC(=O)c2ccccc2)CC[C@]2(C)C3=C([C@@H](O)C[C@@H]12)[C@@]1(C)CC[C@@]2(C)CC[C@@](C)(COC(=O)c4ccccc4)C[C@H]2[C@]1(C)CC3: 0%
C/C(=C\CC[C@@H](C)[C@H]1CC[C@@]2(C)C3=CC[C@H]4C(C)(C)[C@@H](O)CC[C@]4(C)C3=CC[C@]12C)CO: -25%
O=c1c(O[C@@H]2O[C@H](CO)[C@@H](O)[C@H](O)[C@H]2O)c(-c2ccc(O)cc2)oc2cc(O)cc(O)c12: -10%
CC(=O)O[C@H](CC(=O)[O-])C[N+](C)(C)C: -12%
Fc1ccc(-c2ccc3c(c2)[nH]c2ccncc23)cn1: -3%
COC(=O)[C@H](Cc1ccccc1)NC(=O)[C@@H](N)CC(=O)O: -3%
C=CC[S@+]([O-])C[C@H](N)C(=O)O: -15%
CC(C)=CCNc1ncnc2nc[nH]c12: 13%
COc1ccccc1C=CC=O: 16%

Block 2
Compound: CN1CCN(Cc2cc(NC(=O)c3ccc4c(c3)CN(c3ccccc3)CC4)cc(C(F)(F)F)c2)CC1
Tested at: 1 µM
Reference: DMSO
Endpoint: viability
normal colon patient-derived organoid sample E: 94.4%
normal colon patient-derived organoid sample G: 82.1%
normal colon patient-derived organoid sample F: 77.5%
normal colon patient-derived organoids; CellTiter-Glo; average of five organoid lines: 78.7%
normal colon patient-derived organoid sample D: 67%
sample I colorectal tumour organoid: 80.5% and 96.6%
normal colon patient-derived organoid sample H: 72.4%

Block 3
Cell line: Huh-7
Tested at: 10 µM
Time: 24 h
Endpoint: viability
O=C(CCCN1CCC(O)(c2ccc(Br)cc2)CC1)c1ccc(F)cc1: 95.9%
Oc1c(I)cc(I)c2cccnc12: 103%
CC1=C(C(=O)O)N2C(=O)[C@@H](NC(=O)[C@H](N)c3ccc(O)cc3)[C@H]2SC1: 104%
COc1ccc(CN(CCN(C)C)c2ccccn2)cc1: 102%
COc1ccc([C@@H]2Sc3ccccc3N(CCN(C)C)C(=O)[C@@H]2OC(C)=O)cc1: 92.5%
Cc1ncc(CO)c(CO)c1O: 99.6%
O=C1C(O)=C([C@H]2CC[C@H](c3ccc(Cl)cc3)CC2)C(=O)c2ccccc21: 98.9%
Nc1nnc(-c2cccc(Cl)c2Cl)c(N)n1: 103%
CC[C@H]1OC(=O)[C@H](C)[C@@H](O[C@H]2C[C@@](C)(OC)[C@@H](O)[C@H](C)O2)[C@H](C)[C@@H](O[C@@H]2O[C@H](C)C[C@H](N(C)C)[C@H]2O)[C@](C)(O)C[C@@H](C)/C(=N\OCOCCOC)[C@H](C)[C@@H](O)[C@]1(C)O: 101%
CC[C@]1(O)C[C@@H]2CN(CCc3c([nH]c4ccccc34)[C@@](C(=O)OC)(c3cc4c(cc3OC)N(C)[C@H]3[C@@](O)(C(=O)OC)[C@H](OC(C)=O)[C@]5(CC)C=CCN6CC[C@]43[C@@H]65)C2)C1: 58.2%
CC(=O)O[C@]1(C(C)=O)CC[C@H]2[C@@H]3C=C(Cl)C4=CC(=O)CC[C@]4(C)[C@H]3CC[C@@]21C: 90.3%
NC(=O)c1cccnc1: 101%

Block 4
Target: Focal adhesion kinase 1 (PTK2, Homo sapiens, UniProt Q05397)
Sequence of UniProt Q05397 (whole entry, looked up): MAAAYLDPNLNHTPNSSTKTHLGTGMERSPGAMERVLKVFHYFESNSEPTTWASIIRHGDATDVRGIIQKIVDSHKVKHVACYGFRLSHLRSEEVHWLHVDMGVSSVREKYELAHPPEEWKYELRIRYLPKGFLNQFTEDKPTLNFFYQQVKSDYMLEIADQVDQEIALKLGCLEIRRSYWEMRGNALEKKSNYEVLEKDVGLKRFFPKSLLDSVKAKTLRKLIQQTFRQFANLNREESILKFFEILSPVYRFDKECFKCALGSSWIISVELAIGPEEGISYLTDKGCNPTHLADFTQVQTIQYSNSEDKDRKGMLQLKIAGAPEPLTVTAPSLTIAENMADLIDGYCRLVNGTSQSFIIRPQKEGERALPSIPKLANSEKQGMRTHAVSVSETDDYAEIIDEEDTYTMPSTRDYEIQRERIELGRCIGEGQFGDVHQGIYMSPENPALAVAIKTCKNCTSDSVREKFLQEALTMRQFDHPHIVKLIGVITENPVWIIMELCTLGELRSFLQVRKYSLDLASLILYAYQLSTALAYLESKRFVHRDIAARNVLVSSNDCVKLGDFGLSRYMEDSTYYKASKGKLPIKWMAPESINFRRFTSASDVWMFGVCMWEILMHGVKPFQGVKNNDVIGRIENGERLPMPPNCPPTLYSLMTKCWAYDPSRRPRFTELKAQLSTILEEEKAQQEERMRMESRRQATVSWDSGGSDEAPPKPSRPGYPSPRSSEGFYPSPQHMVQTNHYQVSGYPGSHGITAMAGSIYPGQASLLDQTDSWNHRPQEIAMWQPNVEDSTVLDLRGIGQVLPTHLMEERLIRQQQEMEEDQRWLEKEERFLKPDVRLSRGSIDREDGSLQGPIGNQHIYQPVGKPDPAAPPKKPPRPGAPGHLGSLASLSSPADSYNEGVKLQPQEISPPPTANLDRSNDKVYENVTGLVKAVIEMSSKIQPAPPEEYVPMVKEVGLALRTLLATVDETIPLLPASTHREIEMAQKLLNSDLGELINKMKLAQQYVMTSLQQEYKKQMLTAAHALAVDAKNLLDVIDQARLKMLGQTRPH
Observed: enzyme activity
Mode: inhibitor
Tested at: 0.5 µM
Reference: control
Endpoint: remaining activity
COc1cc2ncnc(Nc3cccc(Cl)c3)c2cc1OC: 95.1%
N#Cc1c(NC(=O)c2cccc3ccccc23)sc2c1CCCC2: 101%
O=C1C(Cl)=C(N2C(=O)CCC2=O)C(=O)c2ccccc21: 98.4%
CCOc1nc(NC(=O)Cc2cc(OC)ccc2OC)cc(N)c1C#N: 97.6%
O=C1c2ccccc2-c2n[nH]c3cccc1c23: 64.8%
C[C@@H]1CCN(C(=O)CC#N)C[C@@H]1N(C)c1ncnc2[nH]ccc12: 103%
O=C(NC(NC(=S)Nc1ccc(F)c([N+](=O)[O-])c1)C(Cl)(Cl)Cl)C(c1ccccc1)c1ccccc1 (stereo not shown): 113%
Cn1nc2c3c(cccc31)C(=O)c1ccccc1-2: 92.8%
CN(C)C[C@H]1CCn2c(c(C3=C(c4cn(C)c5ccccc45)C(=O)NC3=O)c3ccccc32)C1: 95.9%
c1ccc(-c2[nH]ncc2-c2ccnc3ccccc23)nc1: 99.3%
Cc1cc2ncc(-c3ccccc3)nc2cc1C: 92.5%
N#C/C(=C\c1ccc(O)c(O)c1)C(=O)NCc1ccccc1: 96.9%
CCN(CC)C(=O)c1ccc(Nc2nc(OCC3CCCCC3)c3[nH]cnc3n2)cc1: 76.9%
Cc1nc2cc3nc(-c4cccs4)cnc3cc2n1C: 117%
Nc1cccc(-c2cc3c(Oc4cccc(O)c4)ncnc3[nH]2)c1: 88.4%
O=C(Nc1cccc(Nc2nccc(Nc3cccc(C(F)(F)F)c3)n2)c1)C1CC1: 89.1%
CCN(CC)CCNC(=O)c1c(C)[nH]c(/C=C2\C(=O)Nc3ccc(Cl)cc32)c1C: 25.8%
CN([C@@H](Cc1ccc(OS(=O)(=O)c2cccc3cnccc23)cc1)C(=O)N1CCN(c2ccccc2)CC1)S(=O)(=O)c1cccc2cnccc12: 104%
c1ccc(-c2cnc(Nc3ccc(OCCN4CCCC4)cc3)s2)cc1: 98.3%
Cc1cn(-c2cc(NC(=O)c3ccc(C)c(Nc4nccc(-c5cccnc5)n4)c3)cc(C(F)(F)F)c2)cn1: 107%
COc1cc2c(cc1OC)-c1[nH]nc(Nc3cccc(F)c3)c1C2: 88.2%
O=c1cc(-c2cccc3c2Sc2ccccc2S3)oc(N2CCOCC2)c1: 113%
Ic1cccc(CSc2nnc(-c3ccncc3)o2)c1: 106%
COc1cc2ncnc(Nc3ccc(O)c(Br)c3)c2cc1OC: 99.5%

For quick reference, copied from above (block 3):
Cc1ncc(CO)c(CO)c1O: 99.6%
CC[C@]1(O)C[C@@H]2CN(CCc3c([nH]c4ccccc34)[C@@](C(=O)OC)(c3cc4c(cc3OC)N(C)[C@H]3[C@@](O)(C(=O)OC)[C@H](OC(C)=O)[C@]5(CC)C=CCN6CC[C@]43[C@@H]65)C2)C1: 58.2%
CC1=C(C(=O)O)N2C(=O)[C@@H](NC(=O)[C@H](N)c3ccc(O)cc3)[C@H]2SC1: 104%
O=C(CCCN1CCC(O)(c2ccc(Br)cc2)CC1)c1ccc(F)cc1: 95.9%
